Assay results pooled from the literature.
Parts stem from different laboratories: compare values within a part only.

Study 1
Target: Interferon regulatory factor 3, full length, phosphomimetic (IRF3, Homo sapiens, UniProt Q14653, residues 1-427, S386D/S396D/S398D/S402D/T404D/S405D)
Method: protein-binding microarray
Molecule type: double-stranded DNA, one strand shown
Medium: in vitro
Concentration: 2540 nM top
Notes: 60-bp whole probe
Together with: salmon DNA 0.4 mg/ml
Relative to: random background probes
Reading: higher = stronger binding
Constant ends, left off below: GCCTAGCAC … GTCTTGATTCGCTTGACGCTGCTG
Construct (chain): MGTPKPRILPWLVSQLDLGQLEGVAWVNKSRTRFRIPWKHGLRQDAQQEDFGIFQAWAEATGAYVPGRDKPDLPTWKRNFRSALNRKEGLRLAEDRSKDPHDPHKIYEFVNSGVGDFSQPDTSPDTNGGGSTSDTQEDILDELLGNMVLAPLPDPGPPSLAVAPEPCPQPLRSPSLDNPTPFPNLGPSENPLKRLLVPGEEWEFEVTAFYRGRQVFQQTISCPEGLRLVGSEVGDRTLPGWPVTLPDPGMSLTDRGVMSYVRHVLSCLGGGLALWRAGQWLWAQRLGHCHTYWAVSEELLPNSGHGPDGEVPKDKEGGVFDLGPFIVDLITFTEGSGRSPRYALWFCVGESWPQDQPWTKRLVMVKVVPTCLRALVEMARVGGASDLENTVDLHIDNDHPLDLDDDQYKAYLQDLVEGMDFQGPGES
Oligonucleotide | fitted relative affinity [z-score]
TATGTTCCCTATTTAAGGCAGTGCTAG | 3.69
ATAGATCTCAGACTGGATTAGTGCTAG | 0.0175
GCCGGACTGCTACTGCTGACGTGCTAG | -0.27
TCACCTATAGGGCCTGACACTGTGCTA | 0.0865
GACGGTTCCGGGACTGGGGACGTGCTA | 1.06
TCATTTGTCCCTATTTAACTGTGCTAG | 1.96
TTAGGTATCCTTAGCCTTTAGTGCTAG | 1.75
TTAGGAATCCTTCTCCTTTAGTGCTAG | 3.82
CTCTGGGGGGTGGGATGAAGGTGCTAG | 0.27
GACGGACCGGGACTGGGGACGTGCTAG | -0.712
AGTGTCATGTTTCTATGGGCGTGCTAG | 1.33
TCACCTTTTTTGTTGTTACTGTGCTAG | 2.92
TTAGAACTGGGGTTTCGATTGGTGCTA | 0.504
GACGGACTGGGTCTCGGAACGTGCTAG | -0.485
GAAGGTATCGGGACTGGGGACGTGCTA | 1.04
TTAGGTATCGGTTTCGGCTAGTGCTAG | 6.82
TTAGGTTTCCTTTCTCTTTAGTGCTAG | 12.7
TTAAGACTGCTTCTCCTTTAGTGCTAG | -0.162

Study 2
Target: RNA binding protein fox-1 homolog 2, RRM domain, GST-SBP tag (RBFOX2, Homo sapiens, UniProt O43251-10, residues 100-194)
Method: RNA Bind-n-Seq
Molecule type: RNA
Medium: in vitro
Concentration: 365 nM
Notes: natural RNA segment, single round, ends assumed
Relative to: no-protein control
Reading: higher = stronger binding
Constant ends, left off below: GGGAGUUCUACAGUCCGACGAUC … UGGAAUUCUCGGGUGCCAA
Residues (chain): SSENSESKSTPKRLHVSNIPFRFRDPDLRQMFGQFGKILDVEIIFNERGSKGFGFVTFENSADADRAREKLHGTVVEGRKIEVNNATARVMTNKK
Oligonucleotide | RBNS enrichment (R)
AAGAUUGUCCCGCCUCUGCCAAUCCCCGCCGUCCUUCCAGCCCACGACCUGCCGCGCCGAGGAGCGGCAUCUGUCCCGUUUCCCGAUUGGGUCUGUCGUCUCUCUCCGCC | 0.462
CUGGAUCAUAGAGUGACCUUUAAUAAGUUAAAAAAACGAGGACUCCUUAAUUCUGCUAGAGUUAACCUUGAGUUCAGAGCAGUAUUAAAUGCGUGCACUUUCAGGUCAGU | 0.465
CAGUCAGCAGUUAAGUAUAUAACAUGGCCCGCAAGGACAAUGAAUCCACUCACAUUGCAGAACAAUUCCGAAAAUGGCAAACUACUACUACUACUGUUCAGUUUUUUAAA | 0.268
UCCUAAGCGUUACAUGGUUGUGACUAUGGAAACUCCAGUUAAGACAGGAUCUUAUCAGAGGUGGACAACGUGAAGAUUUCCUUUUCCAUUUUCAAUAAACUUUGGAACAA | 0.357
CUGAGGGAGGGAAAUACAGAAGCCACCUUUUUAUUUCUCUUCACUGUGUACAAGUUCACUUGUUGUCUUGAACACUGUCUCAAAUACCUGCUUUUUGUUUUGGAUAGUAC | 0.348
GGUGGUGAUGCAACUGGGGGCUUACUCUGAGGAAACCUAGGAAAUCUCGGUGCACUAGGAAGUGAAUCCCGCAGGACAGCUGCACUCAGGGAUACGCCCAACACCAUGGC | 0.682
AUUUAUCAGUGAUUUGUAAGUUUCAUCAAGUGAUUUCUUCGACAAGAUGAACCAAAGGAUUAGCCUCGCGCUACGUCAUUGCAUCCGCUCCCCCUCGUCCUGACUCAGCU | 0.938
CCCAGCUGCCUUUAGGGCCCCCAUUGUUCAUAACAGCAUAUGCAUUUCCCCACCGCGUUGUGUCUGCAGCUUCUUUGCCAAUAUAGUAAUGCUUUUAGUAGAGUACUAGA | 4.49
UAUAGUUCCUGCUGUUAACAUUACCUUUUGAAACCUUGGCUCCAGUUUUGGUGCUUCUUAUACAAAUUAAAUGCGAAAAGGGACUGUAAACUUAAGAUGUAUUUUAAGGA | 0.411
GUGCUUGCCCUUGGAAUUGUCUCUAAAUGCAUCAAGCAUACAAUAAAAAAAACUGAAAUUAACAUCCGUGGAGUGGCCUCUUCUGUUUUGUGUCUCGUGAAUAAACGUGG | 1.57
GUUUUUACUUUUUUAAUGUAAGUCUGAGUCUUUGUAAUUAUUGAAUUGUGAGAACAAUUUUGAACAAUUUACCUGUCAAUAAAGCAGAAGGCAGCAGUUUUAAAGUUCUC | 0.447
CUCCCCAAUCACUUAGUCUUCACCUACCCCAUUCCAAUAAGCCUCAUUUCUUCUCAUCCCCUGCUUGGCUUCUCUGCAUGUGGUCAUCUGCUAUGGCCUGGUGUGUAAUG | 12.7

Study 3
Target: Sal-like protein 4, full length isoform A (SALL4, Homo sapiens, UniProt Q9UJQ4, residues 1-1053)
Chain of UniProt Q9UJQ4 (whole entry, looked up): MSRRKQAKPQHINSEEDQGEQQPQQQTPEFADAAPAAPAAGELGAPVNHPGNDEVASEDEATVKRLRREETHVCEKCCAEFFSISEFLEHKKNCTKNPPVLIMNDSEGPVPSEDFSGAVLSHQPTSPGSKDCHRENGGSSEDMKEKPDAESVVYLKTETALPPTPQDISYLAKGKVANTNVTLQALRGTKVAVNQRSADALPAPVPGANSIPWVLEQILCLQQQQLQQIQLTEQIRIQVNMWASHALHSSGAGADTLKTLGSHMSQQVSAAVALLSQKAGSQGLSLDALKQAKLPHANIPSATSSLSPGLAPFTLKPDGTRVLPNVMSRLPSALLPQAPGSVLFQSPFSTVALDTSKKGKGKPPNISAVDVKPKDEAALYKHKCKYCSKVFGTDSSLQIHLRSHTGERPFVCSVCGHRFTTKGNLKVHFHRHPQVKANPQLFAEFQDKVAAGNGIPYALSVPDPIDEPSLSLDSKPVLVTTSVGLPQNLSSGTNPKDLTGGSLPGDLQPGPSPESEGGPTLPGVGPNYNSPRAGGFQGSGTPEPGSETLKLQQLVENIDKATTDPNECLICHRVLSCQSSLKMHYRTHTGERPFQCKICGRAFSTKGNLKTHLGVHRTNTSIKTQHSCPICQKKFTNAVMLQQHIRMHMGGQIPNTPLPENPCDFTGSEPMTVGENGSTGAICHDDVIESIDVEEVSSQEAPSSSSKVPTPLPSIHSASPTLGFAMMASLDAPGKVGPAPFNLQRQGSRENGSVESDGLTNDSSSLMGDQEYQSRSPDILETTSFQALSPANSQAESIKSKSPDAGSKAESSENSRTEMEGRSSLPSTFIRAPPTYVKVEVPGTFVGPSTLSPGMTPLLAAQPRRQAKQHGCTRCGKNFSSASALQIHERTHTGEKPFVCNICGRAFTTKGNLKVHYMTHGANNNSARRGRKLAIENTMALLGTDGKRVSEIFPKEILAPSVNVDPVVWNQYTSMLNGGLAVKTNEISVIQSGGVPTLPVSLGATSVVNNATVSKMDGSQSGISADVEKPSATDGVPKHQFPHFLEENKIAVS
Method: universal PBM
Molecule type: double-stranded DNA, one strand shown
Medium: in vitro
Concentration: 600 nM
Notes: 8-mer, flanks averaged, mean of replicates
Reading: higher = stronger binding
Oligonucleotide | E-score
GGGCGCCA | -0.337
ACGGACGT | -0.13
AGGTCTTC | -0.16
ATCGCTGA | 0.0585
CGTCCTGA | -0.114
CCAGGTAC | -0.298
CTACGTCA | -0.126
ACTTAGAG | 0.117
CATCAGCG | -0.0903
CAATCTCA | 0.0572
CACGTCAC | 0.0315
ATGGCGAC | -0.191
AACTCAGA | 0.106
AGGCCCCT | -0.399
AGTATGGG | 0.0453
CCACCCCG | -0.16
CGACTACC | -0.221
AATCAGGA | -0.0515
ACTATGAA | 0.321
GATCGGAA | -0.00568
ACTTACAT | 0.181
CCCAGGAG | -0.367
CGGGTCGC | -0.28
GGGCGACA | -0.294
TCGTAACA | 0.236

Study 4
Target: Histone acetyltransferase KAT6A, both winged helices, GST fusion (KAT6A, Homo sapiens, UniProt Q92794, residues 1-181)
Method: protein binding microarray
Molecule type: double-stranded DNA, one strand shown
Medium: in vitro
Concentration: not given
Notes: 8-mer, flanks averaged, mean of 2 arrays, mostly near background
Relative to: not given
Reading: higher = stronger binding
Residues (chain): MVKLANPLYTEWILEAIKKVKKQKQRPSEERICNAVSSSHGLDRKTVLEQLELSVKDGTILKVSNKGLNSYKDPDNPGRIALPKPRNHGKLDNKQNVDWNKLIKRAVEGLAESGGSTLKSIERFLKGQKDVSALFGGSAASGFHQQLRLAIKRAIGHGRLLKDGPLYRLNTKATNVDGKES
Oligonucleotide | E-score
CTACCGGC | 0.209
GTTCACGA | -0.00045
GCCCTCAC | -0.0487
ACCGACAT | 0.0531
AGTCATTA | -0.125
ACTCGTCG | -0.116
GGGACACC | 0.0784
AAGTTGGA | -0.165
CATATCCA | -0.11
AATCAACA | -0.145
ACACTTAG | -0.175
ATATGTAA | -0.0827
AGGTCCGC | 0.125
TATCTGGA | -0.291
CTTCGGTA | -0.0784
ATTCGCCG | 0.265
CATCTTAG | -0.0466
AAGGTACT | -0.026
CGCACCAC | 0.0374
ACGCTAAA | 0.135
CCGTGGCA | 0.17
CGTCATTA | -0.00789
AGGACGTA | -0.157
CTGAACCA | -0.0733

For quick reference, copied from above (study 3):
Oligonucleotide | E-score
GATCGGAA | -0.00568
CGACTACC | -0.221
CAATCTCA | 0.0572
CTACGTCA | -0.126
AGGTCTTC | -0.16
ACTATGAA | 0.321
ACGGACGT | -0.13
CCAGGTAC | -0.298
ATGGCGAC | -0.191
ACTTACAT | 0.181
ATCGCTGA | 0.0585
